Experimental data pooled from the literature.
Numbered parts are unrelated; each lists some results of a single study. Positions count from the first letter of the parent shown.

Block 1 — method: universal PBM; molecule type: double-stranded DNA, one strand shown; medium: in vitro; concentration: 600 nM; reading: higher = stronger binding
Target: Sal-like protein 4, full length isoform A (SALL4, Homo sapiens, UniProt Q9UJQ4, residues 1-1053)
Sequence of UniProt Q9UJQ4 (whole entry, looked up): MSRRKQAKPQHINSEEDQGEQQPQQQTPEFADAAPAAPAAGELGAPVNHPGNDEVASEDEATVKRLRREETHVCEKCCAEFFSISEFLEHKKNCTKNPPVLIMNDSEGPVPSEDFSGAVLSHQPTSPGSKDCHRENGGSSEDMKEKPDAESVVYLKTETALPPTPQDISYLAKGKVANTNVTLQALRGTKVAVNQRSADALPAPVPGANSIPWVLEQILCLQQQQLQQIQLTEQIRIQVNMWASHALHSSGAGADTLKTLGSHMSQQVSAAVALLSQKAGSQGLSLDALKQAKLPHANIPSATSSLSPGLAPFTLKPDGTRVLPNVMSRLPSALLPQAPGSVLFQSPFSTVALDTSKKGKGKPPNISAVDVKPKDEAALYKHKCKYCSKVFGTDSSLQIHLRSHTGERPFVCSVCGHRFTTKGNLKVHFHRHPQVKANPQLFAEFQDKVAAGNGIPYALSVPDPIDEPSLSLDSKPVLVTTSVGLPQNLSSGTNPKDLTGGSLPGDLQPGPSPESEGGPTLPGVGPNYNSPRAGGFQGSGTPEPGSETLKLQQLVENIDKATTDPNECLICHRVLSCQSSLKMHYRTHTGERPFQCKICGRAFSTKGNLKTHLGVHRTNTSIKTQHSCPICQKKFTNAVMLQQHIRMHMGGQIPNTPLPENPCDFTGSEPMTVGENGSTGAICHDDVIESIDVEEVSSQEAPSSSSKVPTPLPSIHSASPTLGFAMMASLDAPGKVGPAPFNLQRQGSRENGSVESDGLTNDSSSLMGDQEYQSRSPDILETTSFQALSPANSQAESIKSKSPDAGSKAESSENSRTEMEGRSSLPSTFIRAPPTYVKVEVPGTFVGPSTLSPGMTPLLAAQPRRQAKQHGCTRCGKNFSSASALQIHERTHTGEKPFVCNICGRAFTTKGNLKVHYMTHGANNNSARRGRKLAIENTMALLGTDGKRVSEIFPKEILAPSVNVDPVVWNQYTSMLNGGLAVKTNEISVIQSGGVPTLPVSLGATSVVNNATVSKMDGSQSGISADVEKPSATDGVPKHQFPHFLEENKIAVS
Notes: 8-mer, flanks averaged, mean of replicates
The E-score of `CCCCTATC` is reported as -0.183.
For `AGACGCTG`, the E-score was -0.168.
The E-score of `GTCACTGA` is reported as -0.0106.
With `ACCATGGC` the E-score was -0.0258.
For `CGGTGCTC`, the E-score was -0.241.
The E-score of `AAGCACAT` is reported as -0.0409.
For `CAAAGTGG`, the E-score was -0.174.
`CATTACCA` has an E-score of 0.107.
The E-score of `CTTCGCTA` is reported as 0.00398.
`AGCGGACT` gave an E-score of -0.204.
`GAGCTACA` gave an E-score of -0.0531.
`ATCTGAAA` gave an E-score of 0.203.
`AAGGCTAG` has an E-score of 0.0756.
`CCTGTTTA` has an E-score of 0.108.
The E-score of `CAAGTAAC` is reported as 0.192.
For `CTACCTAA`, the E-score was 0.0777.

Block 2 — method: DHFR PCA, deep sequencing; medium: yeast; with: (+)-ABA 1.4 µM; relative to: wild-type fitted maximum; reading: higher = stronger binding
Target: ABI1, truncated, D143A, DHFR fusion (Arabidopsis thaliana)
Notes: methotrexate growth selection, single substitutions
Starting sequence: PYL1, truncated, DHFR fusion (Arabidopsis thaliana); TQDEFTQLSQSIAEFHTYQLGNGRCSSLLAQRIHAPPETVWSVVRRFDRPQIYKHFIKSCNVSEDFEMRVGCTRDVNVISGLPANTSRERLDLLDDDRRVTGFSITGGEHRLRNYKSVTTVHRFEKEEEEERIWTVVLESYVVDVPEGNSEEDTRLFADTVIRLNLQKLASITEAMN; partner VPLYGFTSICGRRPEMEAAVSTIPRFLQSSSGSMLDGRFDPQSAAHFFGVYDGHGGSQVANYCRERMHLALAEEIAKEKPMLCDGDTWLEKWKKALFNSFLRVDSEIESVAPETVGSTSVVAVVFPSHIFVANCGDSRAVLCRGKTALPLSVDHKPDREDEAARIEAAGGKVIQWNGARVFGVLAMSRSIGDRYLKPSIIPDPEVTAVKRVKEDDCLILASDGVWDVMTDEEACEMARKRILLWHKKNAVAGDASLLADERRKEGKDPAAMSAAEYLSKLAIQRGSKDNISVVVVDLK
Under “relative binding score”, `E129T` is recorded as 62.1%.
Under “relative binding score”, `K58T` is recorded as 3.12%.
`L91V`: “relative binding score” -1.62%.
`G102S`: “relative binding score” 48%.
For `E127F`, “relative binding score” read 53.8%.
`T135A`: “relative binding score” 14.2%.
For `T160F`, “relative binding score” read 62.6%.
For `S26M`, “relative binding score” read 9.42%.
`E64L`: “relative binding score” 28%.
`F15N`: “relative binding score” 3.19%.
`V100I`: “relative binding score” 55.8%.
`A30V`: “relative binding score” 53.4%.
`T135E` — result for “relative binding score”: 3.36%.

Block 3 — method: RNA Bind-n-Seq; molecule type: RNA; medium: in vitro; concentration: 200 nM; notes: whole 134-nt RNA, ends assumed; with: 150 mM KCl; relative to: input library; reading: higher = stronger binding
Target: Ras GTPase-activating protein-binding protein 1, full length (G3BP1, Homo sapiens, UniProt Q13283)
Sequence of UniProt Q13283 (whole entry, looked up): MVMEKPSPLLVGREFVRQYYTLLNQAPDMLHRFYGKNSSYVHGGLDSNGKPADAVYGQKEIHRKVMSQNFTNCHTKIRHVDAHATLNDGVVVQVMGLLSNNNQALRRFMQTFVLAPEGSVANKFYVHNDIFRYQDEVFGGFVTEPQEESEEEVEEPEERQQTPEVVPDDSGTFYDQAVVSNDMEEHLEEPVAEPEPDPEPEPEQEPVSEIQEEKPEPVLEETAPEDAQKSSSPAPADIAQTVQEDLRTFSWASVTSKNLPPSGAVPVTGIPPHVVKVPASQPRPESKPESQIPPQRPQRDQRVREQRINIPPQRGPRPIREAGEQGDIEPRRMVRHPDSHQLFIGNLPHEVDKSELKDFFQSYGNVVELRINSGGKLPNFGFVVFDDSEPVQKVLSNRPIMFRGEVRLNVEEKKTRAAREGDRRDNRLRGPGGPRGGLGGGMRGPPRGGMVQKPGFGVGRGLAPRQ
The log2 enrichment of `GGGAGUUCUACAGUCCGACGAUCUGAAAAUGCUUUCAUGUUAAUUGUGUACACACAUUUCAUCUGUAUCCCUGUUUCUUUUCUCCCUACAGAAACAUAUGAGGAUUUUGAUACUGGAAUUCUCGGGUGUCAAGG` is reported as 0.0226.
`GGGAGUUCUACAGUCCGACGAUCGUCCUGUGCUACACAUCGUAUGUACCGAAUCAAAUUUUUUUAAACCCCCAAAUUUAAAAAAGUAUUAUGUUACGCCGUUCGGAUCUGCACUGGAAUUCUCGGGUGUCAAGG` has a log2 enrichment of -0.315.
For `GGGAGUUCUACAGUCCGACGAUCUGGCCCUGGUGGCAUGCGGGGAGGAAGAUGUGGCCUCAUGGAUCGUGGUGGUCCCGGUGGAAUGUUCAGAGGUGGCCGUGGUGGAGACAGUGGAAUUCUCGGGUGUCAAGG`, the log2 enrichment was 0.298.
With `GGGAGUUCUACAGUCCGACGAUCUGGCCCUUGUGGCAUGCGGGGAGGAAGAGGUGGCCUCAUGGAUCGUGGUGGUCCCGGUGGAAUGUUCAGAGGUGGCCGUGGUGGAGACAGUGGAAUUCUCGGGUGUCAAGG` the log2 enrichment was 0.185.
`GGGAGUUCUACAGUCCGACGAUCUAACUUUAGAGGAGGAUCUGAUGGAUAUGGCAGUGGACGUGGAUUUGGGGAUGGCUAUAAGGGGUAUGGAGGAGGACCUGGAGGUGGCAAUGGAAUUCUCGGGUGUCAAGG` has a log2 enrichment of 0.574.
`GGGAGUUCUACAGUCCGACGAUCAAGUCCUGUGCUACACAUCGUAUGUACCGAAUCGGGGAGGGGUUUGGGGAAAGGGGAAAGUAUUAUGUUACGCCGUUCGGAUCUGCACUUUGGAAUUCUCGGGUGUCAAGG` gave a log2 enrichment of 0.849.
With `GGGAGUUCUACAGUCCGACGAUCACCAUGCAGGUGGGCAACUUUGGGAAGUGGGGCAAGGGGGGGAUAGGGAGGGGGGUAACACUUUGGGAACAGGUGGUCCCAGGUCGUUUCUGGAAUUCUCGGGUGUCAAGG` the log2 enrichment was 1.28.
For `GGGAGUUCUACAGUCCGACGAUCCCUGUGCUACACAUCGUAUGUACCGAAUCGGGGAGGGGAAAAAAAGGGGUUUUUUUGGGGAAAGUAUUAUGUUACGCCGUUCGGAUCUGCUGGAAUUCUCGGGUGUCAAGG`, the log2 enrichment was 0.202.
The log2 enrichment of `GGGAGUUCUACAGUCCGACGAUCCAAGUCCUGUGCUACACAUCGUAUGUACCGAAUCGGGUUUGGGGUUUGGGUUUGGGAAAGUAUUAUGUUACGCCGUUCGGAUCUGCACUUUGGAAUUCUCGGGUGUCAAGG` is reported as 0.498.

Block 4 — target: CCND3, cyclin fold, Cln2 fusion (human); method: yeast growth competition, sequencing; medium: yeast; notes: weak parent motif; relative to: not given; reading: higher = stronger binding
Starting sequence: PKMYT1 docking peptide (human); SFEPRNLLSLFED; partner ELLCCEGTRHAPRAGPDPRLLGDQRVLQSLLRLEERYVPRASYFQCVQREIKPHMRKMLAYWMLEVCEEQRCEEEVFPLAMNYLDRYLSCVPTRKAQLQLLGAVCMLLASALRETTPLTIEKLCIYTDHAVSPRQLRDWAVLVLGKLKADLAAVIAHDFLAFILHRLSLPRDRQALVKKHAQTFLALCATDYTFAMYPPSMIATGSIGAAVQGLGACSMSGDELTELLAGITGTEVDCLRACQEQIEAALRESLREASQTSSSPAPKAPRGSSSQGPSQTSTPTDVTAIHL
Under “normalised enrichment score”, `P4V` is recorded as 0.0367.
For `L8G`, “normalised enrichment score” read 0.0612.
Under “normalised enrichment score”, `F2H` is recorded as 0.0554.
Under “normalised enrichment score”, `F11A` is recorded as 0.137.
`L7H`: “normalised enrichment score” 0.0769.
Under “normalised enrichment score”, `L8T` is recorded as 0.0995.
For `F2C`, “normalised enrichment score” read 0.0973.
`P4Y` — result for “normalised enrichment score”: 0.0321.
`S9C`: “normalised enrichment score” 0.0173.
For `N6M`, “normalised enrichment score” read -0.0583.
Under “normalised enrichment score”, `L7W` is recorded as 0.0516.
For `D13W`, “normalised enrichment score” read -0.00265.
`F11L` — result for “normalised enrichment score”: -0.0638.

Excerpt of the above (block 3):
`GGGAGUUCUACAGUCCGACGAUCGUCCUGUGCUACACAUCGUAUGUACCGAAUCAAAUUUUUUUAAACCCCCAAAUUUAAAAAAGUAUUAUGUUACGCCGUUCGGAUCUGCACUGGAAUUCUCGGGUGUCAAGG` has a log2 enrichment of -0.315.
For `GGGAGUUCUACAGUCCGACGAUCUGGCCCUGGUGGCAUGCGGGGAGGAAGAUGUGGCCUCAUGGAUCGUGGUGGUCCCGGUGGAAUGUUCAGAGGUGGCCGUGGUGGAGACAGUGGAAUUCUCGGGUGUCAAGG`, the log2 enrichment was 0.298.
With `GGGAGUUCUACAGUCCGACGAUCUGGCCCUUGUGGCAUGCGGGGAGGAAGAGGUGGCCUCAUGGAUCGUGGUGGUCCCGGUGGAAUGUUCAGAGGUGGCCGUGGUGGAGACAGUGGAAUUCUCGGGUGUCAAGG` the log2 enrichment was 0.185.
`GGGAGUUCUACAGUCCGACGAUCUAACUUUAGAGGAGGAUCUGAUGGAUAUGGCAGUGGACGUGGAUUUGGGGAUGGCUAUAAGGGGUAUGGAGGAGGACCUGGAGGUGGCAAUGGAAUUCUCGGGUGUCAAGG` has a log2 enrichment of 0.574.
`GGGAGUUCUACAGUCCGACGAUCAAGUCCUGUGCUACACAUCGUAUGUACCGAAUCGGGGAGGGGUUUGGGGAAAGGGGAAAGUAUUAUGUUACGCCGUUCGGAUCUGCACUUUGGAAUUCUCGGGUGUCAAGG` gave a log2 enrichment of 0.849.
With `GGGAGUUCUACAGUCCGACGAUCACCAUGCAGGUGGGCAACUUUGGGAAGUGGGGCAAGGGGGGGAUAGGGAGGGGGGUAACACUUUGGGAACAGGUGGUCCCAGGUCGUUUCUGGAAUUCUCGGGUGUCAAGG` the log2 enrichment was 1.28.
For `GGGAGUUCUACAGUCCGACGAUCCCUGUGCUACACAUCGUAUGUACCGAAUCGGGGAGGGGAAAAAAAGGGGUUUUUUUGGGGAAAGUAUUAUGUUACGCCGUUCGGAUCUGCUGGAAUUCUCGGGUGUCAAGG`, the log2 enrichment was 0.202.
